Measured values collected from several papers.
Lines come from different studies, so protocols differ. Numbers after ± are the reported error.

O=C(NCCN1C(=O)C=CC1=O)[O][Pt-2]12([O]C(=O)NCCN3C(=O)C=CC3=O)([NH2+][C@@H]3CCCC[C@H]3[NH2+]1)[O]C(=O)C(=O)[O]2
half-life (BALB/c mice, serum; intravenous, equimolar to 9 mg/kg oxaliplatin): 55.7 h

CC[C@H](C)[C@H](NC(=O)[C@H](Cc1ccccc1)NC(=O)[C@H](CCC(=O)O)NC(=O)[C@H](CCCCN)NC(=O)[C@H](C)NC(=O)[C@H](C)NC(=O)[C@H](CCC(N)=O)NC(=O)CNC(=O)[C@H](CCC(=O)O)NC(=O)[C@H](CC(C)C)NC(=O)[C@H](Cc1ccc(O)cc1)NC(=O)[C@H](CO)NC(=O)[C@H](CO)NC(=O)[C@@H](NC(=O)[C@H](CC(=O)O)NC(=O)[C@H](CO)NC(=O)[C@@H](NC(=O)[C@H](Cc1ccccc1)NC(=O)[C@@H](NC(=O)CNC(=O)[C@H](CCC(=O)O)NC(=O)[C@H](C)NC(=O)[C@@H](N)Cc1c[nH]cn1)[C@@H](C)O)[C@@H](C)O)C(C)C)C(=O)N[C@@H](C)C(=O)N[C@@H](Cc1c[nH]c2ccccc12)C(=O)N[C@@H](CC(C)C)C(=O)N[C@H](C(=O)N[C@@H](CCCNC(=N)N)C(=O)NCC(=O)N[C@@H](CCCNC(=N)N)C(=O)NCC(=O)O)C(C)C
half-life (male ICR mice, plasma; intravenous, 1 mg/kg): 0.08 h

COC1CN([C@H]2CC[C@H]([C@@]3(C)Oc4c(Cl)cc(C(=O)NCc5c(SC)cc(C)[nH]c5=O)c(C)c4O3)CC2)C1
half-life (female CB17 SCID mice, KARPAS-422 xenograft, plasma; 25 mg/kg, day 12): 1.67 h

C=C(NC(=O)c1csc(-c2nc3c(cc2O)-c2nc(cs2)C(=O)NC(C(C)O)C(=O)NC(=C(C)OC)c2nc(cs2)C(=O)NC2c4nc(cs4)C(=O)NC(COC(=O)c4c5c6c(cccc6n4O)COC(=O)C(OC4CC(C)(O)C(N(C)C)C(C)O4)C2OC5)c2nc-3cs2)n1)C(N)=O (centres unmarked)
half-life (ICR mice, Streptococcus pneumoniae ATCC 49169 infected, immunocompromised, blood; intravenous, 32 mg/kg/day once daily): 5.91 h

COc1cccc2c(N3CCC(CCP(=O)(O)O)CC3)ncnc12
half-life (C57BL/6 mice, female, cerebrospinal fluid; subcutaneous, 50 mg/kg): 5 h

Nc1nonc1-c1nnc2c(n1)-c1ccccc1C2=O
half-life (ICR mice, plasma; intraperitoneal, 30 mg/kg): 0.84 ± 0.01 h

O=C(NCCN1C(=O)CCC1=O)[O][Pt]12([O]C(=O)NCCN3C(=O)CCC3=O)([NH][C@@H]3CCCC[C@H]3[NH]1)[O]C(=O)C(=O)[O]2
half-life (BALB/c mice, serum; intravenous, equimolar to 9 mg/kg oxaliplatin): 25.7 h

O=C1C2CC3CC1CC(C(=O)N1CCN(c4ccc([N+](=O)[O-])c5ncccc45)CC1)(C3)C2
half-life (ICR mice male, plasma; oral, 5 mg/kg): 1.37 h
